Experimental data from different studies.
Every numbered part comes from another study and shows a few of its results, in no order.

Study 1
Target: Histone acetyltransferase KAT6A, winged helix 2, GST fusion (KAT6A, Homo sapiens, UniProt Q92794, residues 85-181)
Technique: protein binding microarray
Form: double-stranded DNA, one strand shown
Medium: in vitro
Tested at: not given
Setting: 8-mer, flanks averaged, mean of 2 arrays, mostly near background
Reference: not given
Reading: higher = stronger binding
Endpoint: E-score
Residues (chain): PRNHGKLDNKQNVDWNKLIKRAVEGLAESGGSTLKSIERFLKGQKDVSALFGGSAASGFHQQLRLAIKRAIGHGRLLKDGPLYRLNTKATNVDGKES
AGGGCAGG: 0.195
ATTTGAAG: -0.154
ACCTACAA: -0.0161
CGGCACAC: 0.165
ACCCGCTA: 0.168
ATTACCTA: -0.15

Study 2
Target: Interferon regulatory factor 5, full length, phosphomimetic (IRF5, Homo sapiens, UniProt Q13568-2, residues 1-514, S451D/S453D/S456D/S462D)
Technique: protein-binding microarray
Form: double-stranded DNA, one strand shown
Medium: in vitro
Tested at: 940 nM top
Setting: 60-bp whole probe
With: salmon DNA 0.4 mg/ml
Reference: random background probes
Reading: higher = stronger binding
Endpoint: fitted relative affinity
Shared flanks, not repeated: GCCTAGCAC … GTCTTGATTCGCTTGACGCTGCTG
GACGATATCAGACTGGAGAGGTGCTAG: -0.208 z-score
TTAGATTACAGTTTCGATTAGTGCTAG: 7.23 z-score
GACAATTTCGGGTATCGAGACGTGCTA: 1.83 z-score
TTAGATTTCAGTATCGATTTGTGCTAG: 5.32 z-score
GACGGTATCGACTAGCGGGACGTGCTA: 5.06 z-score
GACGGCATCCTACTGCTGACGTGCTAG: -0.273 z-score

Study 3
Target: Prothrombin, mature alpha-thrombin (F2, Homo sapiens, UniProt P00734)
Technique: aptamer microarray, sandwich
Form: DNA with 2'F-ANA
Medium: in vitro
Tested at: 200 nM
Setting: whole 15-mer aptamer, many near background
With: Cy3 exosite-II aptamer, 400 nM
Reading: higher = stronger binding
Endpoint: mean fluorescence intensity
Oligonucleotide: GGTTGGTGTGGTTGG
2'F-ANA at 1 7 8 15: 294 a.u.
2'F-ANA at 1 2 4 5 13 15: 51.8 a.u.
2'F-ANA at 1 6 7 12: 382 a.u.
2'F-ANA at 1 3 4 6 7 8 9 15: 204 a.u.
2'F-ANA at 2 3 4 7 9 11 13 14 15: 236 a.u.
2'F-ANA at 6 9 12 13 15: 544 a.u.

Single results of other studies
PhoQ, residues 284 288 289 292 302 303 DDMDFR — fold induction (PhoP, residues 12 14 15 18 19 SQCLL (Escherichia coli, UniProt P23836); Sort-seq, item: YFP reporter; E. coli; PhoQ-PhoP variant library, with: 10 µM Mg2+; reference: high Mg2+ state, higher = stronger signaling): 0.797

Repeated from above (study 1):
ACCTACAA: -0.0161
ATTTGAAG: -0.154
